Published values from different studies.
Each line is one published result; not all experiments were run side by side. ± marks the error that the study gave.
Chain of UniProt P22455 (whole entry, looked up): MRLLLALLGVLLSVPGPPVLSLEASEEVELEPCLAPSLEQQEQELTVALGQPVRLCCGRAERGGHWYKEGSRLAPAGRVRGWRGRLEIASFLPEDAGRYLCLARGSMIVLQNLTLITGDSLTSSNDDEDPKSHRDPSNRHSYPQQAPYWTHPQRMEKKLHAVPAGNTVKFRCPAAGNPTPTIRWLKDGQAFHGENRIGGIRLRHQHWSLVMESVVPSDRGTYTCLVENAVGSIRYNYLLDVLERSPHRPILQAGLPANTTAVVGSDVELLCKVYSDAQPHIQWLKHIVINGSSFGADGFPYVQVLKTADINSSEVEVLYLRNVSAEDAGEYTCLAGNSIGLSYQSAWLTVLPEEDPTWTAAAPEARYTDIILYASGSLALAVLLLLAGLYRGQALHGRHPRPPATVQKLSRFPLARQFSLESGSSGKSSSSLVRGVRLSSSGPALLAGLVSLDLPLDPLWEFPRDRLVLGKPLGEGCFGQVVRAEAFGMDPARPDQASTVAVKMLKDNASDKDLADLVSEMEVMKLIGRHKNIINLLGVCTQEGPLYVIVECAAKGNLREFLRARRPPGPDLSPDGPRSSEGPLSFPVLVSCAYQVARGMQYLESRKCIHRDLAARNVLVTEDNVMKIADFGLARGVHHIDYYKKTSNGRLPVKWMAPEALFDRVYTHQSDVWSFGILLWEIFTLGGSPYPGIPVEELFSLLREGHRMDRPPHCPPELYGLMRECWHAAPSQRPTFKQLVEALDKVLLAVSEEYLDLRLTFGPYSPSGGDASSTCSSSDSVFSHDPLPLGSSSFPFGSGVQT
Chain of UniProt Q60893 (whole entry, looked up): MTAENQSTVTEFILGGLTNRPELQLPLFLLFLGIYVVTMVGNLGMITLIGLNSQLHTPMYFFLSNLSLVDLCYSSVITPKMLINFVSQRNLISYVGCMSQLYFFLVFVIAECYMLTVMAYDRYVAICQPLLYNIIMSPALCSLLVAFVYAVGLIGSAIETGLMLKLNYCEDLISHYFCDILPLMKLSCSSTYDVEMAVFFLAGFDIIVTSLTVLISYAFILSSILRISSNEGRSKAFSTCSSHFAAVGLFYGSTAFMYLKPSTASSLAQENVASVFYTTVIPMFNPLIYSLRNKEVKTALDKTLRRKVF
Chain of UniProt P54292 (whole entry, looked up): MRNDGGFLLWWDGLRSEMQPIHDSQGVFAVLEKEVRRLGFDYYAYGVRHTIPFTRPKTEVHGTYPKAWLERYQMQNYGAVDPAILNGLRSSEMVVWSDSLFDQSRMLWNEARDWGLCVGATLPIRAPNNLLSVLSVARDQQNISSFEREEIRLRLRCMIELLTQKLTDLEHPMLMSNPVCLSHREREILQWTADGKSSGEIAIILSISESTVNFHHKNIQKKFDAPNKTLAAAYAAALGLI
Chain of UniProt Q16774 (whole entry, unmodified, looked up): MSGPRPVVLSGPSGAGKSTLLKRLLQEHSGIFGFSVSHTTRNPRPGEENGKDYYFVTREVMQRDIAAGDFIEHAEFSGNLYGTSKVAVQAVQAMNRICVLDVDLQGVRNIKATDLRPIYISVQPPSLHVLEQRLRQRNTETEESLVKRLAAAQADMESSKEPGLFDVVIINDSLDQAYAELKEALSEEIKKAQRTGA
Chain of UniProt P30838 (whole entry, looked up): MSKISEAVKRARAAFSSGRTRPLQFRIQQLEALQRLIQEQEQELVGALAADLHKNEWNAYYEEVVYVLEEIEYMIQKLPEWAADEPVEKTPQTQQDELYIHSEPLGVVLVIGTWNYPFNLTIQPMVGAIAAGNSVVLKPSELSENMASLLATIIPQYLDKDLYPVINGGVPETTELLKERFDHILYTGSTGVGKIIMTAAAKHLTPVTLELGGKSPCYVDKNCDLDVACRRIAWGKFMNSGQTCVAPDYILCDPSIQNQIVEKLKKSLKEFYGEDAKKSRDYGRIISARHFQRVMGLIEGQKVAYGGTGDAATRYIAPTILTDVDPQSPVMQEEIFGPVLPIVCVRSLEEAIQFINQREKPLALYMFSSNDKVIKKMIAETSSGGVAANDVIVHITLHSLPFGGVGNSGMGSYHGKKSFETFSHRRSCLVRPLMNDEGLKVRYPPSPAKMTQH
Chain of UniProt Q01105 (whole entry, unmodified, looked up): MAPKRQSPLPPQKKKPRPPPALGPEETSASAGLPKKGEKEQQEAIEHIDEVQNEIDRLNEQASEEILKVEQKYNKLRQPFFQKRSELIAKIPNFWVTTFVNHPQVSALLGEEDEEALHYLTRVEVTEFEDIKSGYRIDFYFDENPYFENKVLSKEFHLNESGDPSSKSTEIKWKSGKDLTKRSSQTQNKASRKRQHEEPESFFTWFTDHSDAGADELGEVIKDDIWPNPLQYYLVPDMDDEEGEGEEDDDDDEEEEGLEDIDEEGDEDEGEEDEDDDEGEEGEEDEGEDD
Chain of UniProt Q8T6T2 (whole entry, looked up): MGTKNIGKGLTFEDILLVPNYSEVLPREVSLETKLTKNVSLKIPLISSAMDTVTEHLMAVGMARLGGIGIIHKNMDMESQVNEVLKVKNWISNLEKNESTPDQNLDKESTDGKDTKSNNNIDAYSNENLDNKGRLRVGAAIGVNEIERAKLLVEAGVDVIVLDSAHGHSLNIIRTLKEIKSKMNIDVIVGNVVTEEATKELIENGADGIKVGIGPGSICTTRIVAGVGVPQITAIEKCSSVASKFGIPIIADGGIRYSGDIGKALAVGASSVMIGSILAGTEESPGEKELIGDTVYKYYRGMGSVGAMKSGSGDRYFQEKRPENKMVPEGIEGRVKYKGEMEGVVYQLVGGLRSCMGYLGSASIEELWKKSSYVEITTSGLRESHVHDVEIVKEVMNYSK
Chain of UniProt O75388 (whole entry, looked up): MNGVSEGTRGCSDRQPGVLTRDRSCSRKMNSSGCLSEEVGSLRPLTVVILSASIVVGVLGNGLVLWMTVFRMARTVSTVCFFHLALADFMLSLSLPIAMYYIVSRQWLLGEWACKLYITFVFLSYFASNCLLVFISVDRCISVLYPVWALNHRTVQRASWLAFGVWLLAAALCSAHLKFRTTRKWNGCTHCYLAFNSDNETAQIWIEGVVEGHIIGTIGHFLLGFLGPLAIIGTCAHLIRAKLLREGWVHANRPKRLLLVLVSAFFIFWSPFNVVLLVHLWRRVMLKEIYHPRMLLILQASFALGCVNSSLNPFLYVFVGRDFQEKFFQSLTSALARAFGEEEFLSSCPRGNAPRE
Chain of UniProt Q5A6T5 (whole entry, looked up): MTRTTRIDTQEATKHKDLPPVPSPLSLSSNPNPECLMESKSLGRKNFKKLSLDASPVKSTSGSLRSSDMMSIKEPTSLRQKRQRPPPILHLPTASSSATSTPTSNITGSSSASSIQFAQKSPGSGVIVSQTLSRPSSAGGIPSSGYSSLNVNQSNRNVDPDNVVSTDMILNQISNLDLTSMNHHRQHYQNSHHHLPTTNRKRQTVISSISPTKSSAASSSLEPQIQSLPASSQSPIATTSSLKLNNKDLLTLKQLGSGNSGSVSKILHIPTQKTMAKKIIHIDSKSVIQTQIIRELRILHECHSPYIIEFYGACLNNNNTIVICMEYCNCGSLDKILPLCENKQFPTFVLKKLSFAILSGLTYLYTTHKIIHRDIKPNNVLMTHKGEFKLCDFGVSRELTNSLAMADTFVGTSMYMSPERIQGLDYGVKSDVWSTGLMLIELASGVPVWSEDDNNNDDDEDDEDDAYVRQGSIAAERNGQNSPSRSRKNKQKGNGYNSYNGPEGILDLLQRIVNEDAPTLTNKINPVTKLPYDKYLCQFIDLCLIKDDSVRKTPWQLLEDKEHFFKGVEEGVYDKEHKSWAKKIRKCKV
Chain of UniProt Q9UBN7 (whole entry, looked up): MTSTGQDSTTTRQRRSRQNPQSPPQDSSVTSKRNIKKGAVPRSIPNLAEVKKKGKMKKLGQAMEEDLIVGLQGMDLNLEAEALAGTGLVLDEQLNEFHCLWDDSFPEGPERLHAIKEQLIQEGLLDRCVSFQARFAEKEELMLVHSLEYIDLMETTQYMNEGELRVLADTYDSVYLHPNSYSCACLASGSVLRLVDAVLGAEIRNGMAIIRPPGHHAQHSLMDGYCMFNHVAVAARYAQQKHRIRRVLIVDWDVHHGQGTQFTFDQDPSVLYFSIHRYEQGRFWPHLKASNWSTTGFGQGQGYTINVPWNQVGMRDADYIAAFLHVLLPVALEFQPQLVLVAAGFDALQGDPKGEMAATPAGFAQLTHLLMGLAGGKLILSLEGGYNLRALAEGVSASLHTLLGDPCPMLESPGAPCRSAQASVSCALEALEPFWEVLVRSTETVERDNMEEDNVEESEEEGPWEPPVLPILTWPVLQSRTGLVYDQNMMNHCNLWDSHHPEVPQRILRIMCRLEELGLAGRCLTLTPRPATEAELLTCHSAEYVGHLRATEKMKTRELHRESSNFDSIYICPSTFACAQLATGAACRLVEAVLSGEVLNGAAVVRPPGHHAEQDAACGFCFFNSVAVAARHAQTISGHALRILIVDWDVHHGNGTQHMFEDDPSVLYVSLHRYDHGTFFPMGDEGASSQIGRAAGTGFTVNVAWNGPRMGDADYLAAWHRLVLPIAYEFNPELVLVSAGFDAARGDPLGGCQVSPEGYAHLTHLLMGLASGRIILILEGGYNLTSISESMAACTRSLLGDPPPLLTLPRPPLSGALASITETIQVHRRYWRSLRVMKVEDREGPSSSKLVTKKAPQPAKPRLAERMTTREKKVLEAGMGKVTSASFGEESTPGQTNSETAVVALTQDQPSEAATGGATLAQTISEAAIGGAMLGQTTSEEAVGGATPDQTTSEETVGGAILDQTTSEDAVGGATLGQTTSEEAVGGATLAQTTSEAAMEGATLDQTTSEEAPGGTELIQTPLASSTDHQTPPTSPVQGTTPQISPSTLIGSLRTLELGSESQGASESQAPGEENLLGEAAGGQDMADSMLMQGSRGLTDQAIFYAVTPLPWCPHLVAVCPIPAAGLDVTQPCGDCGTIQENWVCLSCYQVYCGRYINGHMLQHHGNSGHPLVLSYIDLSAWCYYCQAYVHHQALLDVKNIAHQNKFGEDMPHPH

| Structure (SMILES) | target | test | system | setting | scale | endpoint | value |
| --- | --- | --- | --- | --- | --- | --- | --- |
| CC(=O)c1ccccc1O | Or8a1 (Mus musculus, UniProt Q60893) | odorant-evoked current, agonist | isolated olfactory neurons | – | baseline: acetophenone saturated response | Emax | 82 ± 6% |
| C=CC(=O)N1CCC[C@@H](n2nc(-c3ccc(Oc4ccccc4)cc3)c3c(N)ncnc32)C1 | FGFR4 (Homo sapiens, UniProt P22455) | – | – | 1 µM | – | remaining activity | 99.1% |
| CN(CCCCCCNC(=O)CNc1cccc2c1C(=O)N(C1CCC(=O)NC1=O)C2=O)Cc1cn(Cc2ccc(C(=O)NO)cc2)c2ccccc12.O=C(O)C(F)(F)F (stereo not shown) | HDAC6 (Homo sapiens, UniProt Q9UBN7) | degrader, western blot | MM1.S | 5 µM, 24 h | – | degradation | 99% |
| O=C1C=CC(=O)c2c1ccc1ccccc21 | Aryl hydrocarbon receptor (Danio rerio, UniProt Q9YGV3) | reporter gene, agonist, luciferase reporter | ZF-4 | 41.15 µM | baseline: vehicle control | fold change | 10.2 |
| NCC(=O)O | Lysozyme C (LYZ, Gallus gallus, UniProt P00698) | binding, sedimentation equilibrium AUC | – | – | – | association constant | 3.2 ± 0.98 M⁻¹ |
| COc1ccccc1C(=O)C#Cc1ccc(F)c(F)c1 | rhlR (Pseudomonas aeruginosa, UniProt P54292) | receptor binding | – | concentration not given, 1.5 h, added: BHL at 1:1 ratio | baseline: control | binding | 50% |
| CCCCCCCCCCCCC/C=C/[C@@H](O)[C@H](CO)NC(=O)CCCCCCCCCCCCCCCCCCCCC | Protein SET (SET, Homo sapiens, UniProt Q01105, Y135C) | lipid binding, GFP pull-down LC-MS/MS | A549 overexpressing GFP-tagged protein | unit not given | baseline: vector-transfected cells | bound endogenous lipid | 11.2 |
| NC(=O)c1ccc[n+]([C@@H]2O[C@H](COP(=O)(O)OP(=O)(O)OC[C@H]3O[C@@H](n4cnc5c(N)ncnc54)[C@H](O)[C@@H]3O)[C@@H](O)[C@H]2O)c1 | ALDH3A1 (Homo sapiens, UniProt P30838) | substrate | – | – | – | Km | 140 ± 10 µM |
| CCN1CCC[C@H]1CNC(=O)c1c(O)c(Cl)cc(Cl)c1OC | GPR32 (Homo sapiens, UniProt O75388) | β-arrestin recruitment, TANGO luminescence | – | concentration not given | baseline: basal luminescence | log2 fold change | 0.132 |
| NC(=O)c1ccc[n+]([C@@H]2O[C@H](COP(=O)([O-])OP(=O)(O)OC[C@H]3O[C@@H](n4cnc5c(N)ncnc54)[C@H](O)[C@@H]3O)[C@@H](O)[C@H]2O)c1 | Inosine-5'-monophosphate dehydrogenase (Cryptosporidium parvum, UniProt Q8T6T2) | dissociation from E-IMP-compound complex, pre-steady-state kinetics | – | – | upper limit estimate | dissociation rate constant k6 | ≤ 0.1 s⁻¹ |
| Nc1ncnc2c1ncn2[C@@H]1O[C@H](CO[P@](=O)(O)O[P@](=O)(O)O[P@@](=O)(O)S)[C@@H](O)[C@H]1O | GUK1 (Homo sapiens, UniProt Q16774) | ITC | – | concentration not given | – | ΔG of binding | -6 kcal/mol |
| Cc1ncsc1-c1ccc(CNC(=O)[C@@H]2C[C@@H](O)CN2C(=O)[C@@H](NC(=O)C2(F)CC2)C(C)(C)C)c(OCCOCCOCCN2CCN(c3cc(-c4ccccc4O)nnc3N)CC2)c1 | VHL-ElonginB-ElonginC complex human | ternary complex formation, fluorescence polarization | – | added: PBRM1 bromodomain 5 | – | cooperativity factor | 4.5 |
| CCCCC[S+]([O-])c1n[nH]c(N)n1 (stereo not shown) | DDB1- and CUL4-associated factor 7 (Homo sapiens, UniProt P61962) | binding, affinity selection mass spectrometry | – | – | baseline: other proteins in batch | log fold enrichment | -0.0478 |
| Oc1ccc(/C=C/c2cc(O)cc(O)c2)cc1 | O-methyltransferase (Sorghum bicolor, UniProt A0A1B6PFV1) | ITC | – | endothermic site, two-site model, added: SFG | – | ∆H | 2.63 kcal/mol |
| Oc1ccccc1-c1n[nH]cc1-c1ccnc2ccccc12 | Serine/threonine-protein kinase STE7 homolog (HST7, Candida albicans, UniProt Q5A6T5) | kinase binding, MIB/MS competition | Candida albicans lysate | 1 µM | baseline: DMSO, negative = stronger binding | log2 fold change | -0.03 |
| CN(c1nccc(-c2cnn3ncccc23)n1)C1CC1 | ABL1 (Homo sapiens, UniProt P00519, H396P) | – | – | 1 µM | baseline: DMSO control | remaining binding | 100% |

Excerpt of the above:
| Structure (SMILES) | target | test | system | setting | scale | endpoint | value |
| --- | --- | --- | --- | --- | --- | --- | --- |
| CCCCCCCCCCCCC/C=C/[C@@H](O)[C@H](CO)NC(=O)CCCCCCCCCCCCCCCCCCCCC | Protein SET (SET, Homo sapiens, UniProt Q01105, Y135C) | lipid binding, GFP pull-down LC-MS/MS | A549 overexpressing GFP-tagged protein | unit not given | baseline: vector-transfected cells | bound endogenous lipid | 11.2 |
